Published values from different studies.
Every numbered part comes from another study and shows a few of its results, in no order. Values joined by “and” are separate records of one study, mostly repeats; a detail may differ.
Chain of UniProt P21860 (whole entry, looked up): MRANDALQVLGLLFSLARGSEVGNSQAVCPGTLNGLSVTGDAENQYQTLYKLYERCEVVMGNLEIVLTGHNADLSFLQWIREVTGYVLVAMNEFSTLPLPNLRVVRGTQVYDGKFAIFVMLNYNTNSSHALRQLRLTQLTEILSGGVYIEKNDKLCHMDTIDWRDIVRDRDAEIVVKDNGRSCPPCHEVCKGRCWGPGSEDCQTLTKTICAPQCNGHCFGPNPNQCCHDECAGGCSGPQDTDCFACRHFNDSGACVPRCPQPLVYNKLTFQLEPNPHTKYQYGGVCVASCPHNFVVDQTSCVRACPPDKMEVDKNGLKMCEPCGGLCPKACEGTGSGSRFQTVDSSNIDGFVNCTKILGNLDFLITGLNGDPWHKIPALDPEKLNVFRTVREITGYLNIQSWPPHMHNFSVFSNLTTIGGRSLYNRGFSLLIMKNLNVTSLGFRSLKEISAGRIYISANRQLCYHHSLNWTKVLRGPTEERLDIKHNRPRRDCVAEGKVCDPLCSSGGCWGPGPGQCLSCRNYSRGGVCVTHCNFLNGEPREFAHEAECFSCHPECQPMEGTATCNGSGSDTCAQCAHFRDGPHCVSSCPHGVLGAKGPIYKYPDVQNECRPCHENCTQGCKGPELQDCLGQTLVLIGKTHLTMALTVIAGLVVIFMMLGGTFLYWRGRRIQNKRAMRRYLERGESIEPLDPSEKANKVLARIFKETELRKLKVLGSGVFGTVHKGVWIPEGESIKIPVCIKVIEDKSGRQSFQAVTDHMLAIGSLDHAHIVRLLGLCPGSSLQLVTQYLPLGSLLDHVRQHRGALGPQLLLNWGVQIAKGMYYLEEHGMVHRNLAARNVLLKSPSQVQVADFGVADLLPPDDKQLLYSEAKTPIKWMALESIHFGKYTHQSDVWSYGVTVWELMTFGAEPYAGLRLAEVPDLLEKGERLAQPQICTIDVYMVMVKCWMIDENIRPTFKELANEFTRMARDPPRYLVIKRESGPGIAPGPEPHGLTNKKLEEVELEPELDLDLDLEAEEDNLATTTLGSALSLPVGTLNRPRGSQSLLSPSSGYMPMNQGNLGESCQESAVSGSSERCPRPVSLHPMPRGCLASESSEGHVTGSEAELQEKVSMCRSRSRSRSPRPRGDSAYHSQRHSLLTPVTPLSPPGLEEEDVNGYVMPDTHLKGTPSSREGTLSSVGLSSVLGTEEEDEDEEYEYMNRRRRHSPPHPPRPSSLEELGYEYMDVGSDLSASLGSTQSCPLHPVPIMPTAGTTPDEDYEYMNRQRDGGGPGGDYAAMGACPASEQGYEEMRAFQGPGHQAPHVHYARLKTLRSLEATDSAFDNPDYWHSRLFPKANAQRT
Chain of UniProt Q16620 (whole entry, looked up): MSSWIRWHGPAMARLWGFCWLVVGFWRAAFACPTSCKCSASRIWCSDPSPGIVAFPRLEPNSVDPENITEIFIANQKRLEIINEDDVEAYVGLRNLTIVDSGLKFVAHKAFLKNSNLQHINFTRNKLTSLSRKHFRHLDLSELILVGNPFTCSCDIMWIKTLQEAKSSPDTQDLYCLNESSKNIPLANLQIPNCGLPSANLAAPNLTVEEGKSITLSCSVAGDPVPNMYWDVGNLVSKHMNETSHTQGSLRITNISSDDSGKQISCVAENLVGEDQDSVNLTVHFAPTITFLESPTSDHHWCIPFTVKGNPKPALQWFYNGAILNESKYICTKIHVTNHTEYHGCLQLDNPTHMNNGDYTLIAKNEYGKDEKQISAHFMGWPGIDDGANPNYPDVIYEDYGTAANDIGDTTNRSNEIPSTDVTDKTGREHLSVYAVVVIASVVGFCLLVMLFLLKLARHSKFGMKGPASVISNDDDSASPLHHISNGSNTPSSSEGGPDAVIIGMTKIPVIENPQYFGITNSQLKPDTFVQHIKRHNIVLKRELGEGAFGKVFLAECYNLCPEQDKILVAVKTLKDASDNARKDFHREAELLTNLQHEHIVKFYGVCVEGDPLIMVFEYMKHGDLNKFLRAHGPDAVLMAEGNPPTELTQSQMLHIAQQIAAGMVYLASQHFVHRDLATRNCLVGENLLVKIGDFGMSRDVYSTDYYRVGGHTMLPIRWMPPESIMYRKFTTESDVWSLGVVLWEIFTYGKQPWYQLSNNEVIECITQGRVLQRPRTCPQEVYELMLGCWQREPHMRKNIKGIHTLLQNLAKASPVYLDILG
Chain of UniProt Q9BZL6 (whole entry, looked up): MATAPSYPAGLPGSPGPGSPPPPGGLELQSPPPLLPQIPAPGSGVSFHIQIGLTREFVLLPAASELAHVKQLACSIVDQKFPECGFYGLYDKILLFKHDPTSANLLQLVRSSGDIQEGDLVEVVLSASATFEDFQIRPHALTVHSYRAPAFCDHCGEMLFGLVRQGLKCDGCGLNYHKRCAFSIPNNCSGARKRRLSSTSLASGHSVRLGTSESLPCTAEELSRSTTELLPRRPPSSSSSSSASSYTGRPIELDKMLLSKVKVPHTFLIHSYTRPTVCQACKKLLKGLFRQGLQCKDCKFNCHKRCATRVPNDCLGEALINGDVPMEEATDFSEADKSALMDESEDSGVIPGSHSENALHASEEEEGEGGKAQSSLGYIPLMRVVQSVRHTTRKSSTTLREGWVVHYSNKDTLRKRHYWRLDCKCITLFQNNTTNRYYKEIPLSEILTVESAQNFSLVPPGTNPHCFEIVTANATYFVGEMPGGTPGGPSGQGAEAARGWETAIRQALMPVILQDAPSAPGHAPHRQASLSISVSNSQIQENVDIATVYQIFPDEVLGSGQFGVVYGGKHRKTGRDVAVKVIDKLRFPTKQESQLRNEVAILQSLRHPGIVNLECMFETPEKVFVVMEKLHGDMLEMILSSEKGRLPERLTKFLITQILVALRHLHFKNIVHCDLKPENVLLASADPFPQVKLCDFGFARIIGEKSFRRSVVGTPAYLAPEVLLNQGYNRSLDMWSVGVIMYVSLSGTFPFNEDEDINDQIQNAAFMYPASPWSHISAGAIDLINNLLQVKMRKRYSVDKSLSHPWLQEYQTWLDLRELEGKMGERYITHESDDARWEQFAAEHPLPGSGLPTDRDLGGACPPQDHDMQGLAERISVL
Chain of UniProt Q16566 (whole entry, looked up): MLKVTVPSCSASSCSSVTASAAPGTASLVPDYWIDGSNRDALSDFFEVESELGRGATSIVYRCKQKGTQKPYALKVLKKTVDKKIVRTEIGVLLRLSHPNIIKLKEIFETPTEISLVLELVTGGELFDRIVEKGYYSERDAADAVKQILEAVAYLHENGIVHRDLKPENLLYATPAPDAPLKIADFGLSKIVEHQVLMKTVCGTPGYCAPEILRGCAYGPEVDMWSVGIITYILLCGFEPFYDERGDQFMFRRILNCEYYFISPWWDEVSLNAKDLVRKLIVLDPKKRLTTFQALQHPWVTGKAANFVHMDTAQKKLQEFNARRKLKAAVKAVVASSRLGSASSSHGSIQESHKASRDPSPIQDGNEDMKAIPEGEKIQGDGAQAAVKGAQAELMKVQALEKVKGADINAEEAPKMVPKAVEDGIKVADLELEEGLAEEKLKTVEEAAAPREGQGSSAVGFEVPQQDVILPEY
Chain of UniProt P22455 (whole entry, looked up): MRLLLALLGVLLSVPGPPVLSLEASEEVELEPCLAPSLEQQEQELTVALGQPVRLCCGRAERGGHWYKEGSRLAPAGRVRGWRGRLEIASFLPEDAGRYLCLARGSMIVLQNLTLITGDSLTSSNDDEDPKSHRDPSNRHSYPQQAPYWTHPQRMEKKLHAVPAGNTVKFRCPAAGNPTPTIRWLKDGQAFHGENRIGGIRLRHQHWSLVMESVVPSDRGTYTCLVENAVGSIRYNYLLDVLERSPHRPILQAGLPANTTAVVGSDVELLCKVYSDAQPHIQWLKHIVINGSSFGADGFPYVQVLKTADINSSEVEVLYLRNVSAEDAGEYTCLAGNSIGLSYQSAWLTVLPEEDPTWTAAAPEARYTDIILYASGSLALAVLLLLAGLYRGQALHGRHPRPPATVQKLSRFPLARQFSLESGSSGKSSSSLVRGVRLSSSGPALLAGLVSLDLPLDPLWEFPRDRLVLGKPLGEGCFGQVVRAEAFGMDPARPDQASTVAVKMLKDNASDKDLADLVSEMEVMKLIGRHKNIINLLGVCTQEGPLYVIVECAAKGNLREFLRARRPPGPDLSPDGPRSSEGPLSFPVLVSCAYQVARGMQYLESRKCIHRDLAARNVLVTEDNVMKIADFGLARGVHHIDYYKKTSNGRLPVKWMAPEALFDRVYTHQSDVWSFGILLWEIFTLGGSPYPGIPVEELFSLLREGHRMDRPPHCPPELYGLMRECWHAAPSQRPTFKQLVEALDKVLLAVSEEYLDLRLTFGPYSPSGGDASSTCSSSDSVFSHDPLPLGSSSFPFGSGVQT

Set 1
Cell line: mouse MPNST tumor cells
Method: high-content nuclear imaging
Item: cell number
Concentration: 10 µM
Time: 12 h
Notes: mean of 2 replicates
Reference: plate mean
Reading: higher = more cells
With CO[C@H]1O[C@@H]2O[C@@]3(C)CC[C@H]4[C@H](C)CC[C@@H]([C@H]1C)[C@@]24OO3 the nuclei count was 0.536 z-score.
With CC1(C)CCC(C)(C)c2cc(C3(c4ccc5cc(C(=O)O)ccc5c4)SCCS3)ccc21 the nuclei count was 0.655 z-score.
With COc1cc(N)c(Cl)cc1C(=O)OCCN1CCCCC1 the nuclei count was -1.29 z-score.
COC1(C2=NCCN2)COc2ccccc2O1 (stereo not shown) has a nuclei count of 0.997 z-score.
For Cc1cc(C(=O)NNCc2ccccc2)no1, the nuclei count was 0.29 z-score.

Set 2
SMILES: CCS(=O)(=O)c1cc2cc(C[C@](O)(CC(C)(C)c3ccc(F)cc3C(N)=O)C(F)(F)F)[nH]c2cn1
Read-out: cell-free assay
Method: competition with immobilised ligand
Concentration: 1 µM
Myosin light chain kinase family member 4 (MYLK4, Homo sapiens, UniProt Q86YV6) — remaining binding: 100%.
It gave 91% for remaining binding (Serine/threonine-protein kinase PLK2 (PLK2, Homo sapiens, UniProt Q9NYY3)).
It gave 72% for remaining binding (Fibroblast growth factor receptor 4 (FGFR4, Homo sapiens, UniProt P22455)).
The remaining binding was 100% (Calcium/calmodulin-dependent protein kinase type IV (CAMK4, Homo sapiens, UniProt Q16566)).
Serine/threonine-protein kinase DCLK3 (DCLK3, Homo sapiens, UniProt Q9C098) — remaining binding: 100%.
For Epidermal growth factor receptor (EGFR, Homo sapiens, UniProt P00533, del747-752/P753S): remaining binding read 83%.
For Serine/threonine-protein kinase B-raf (BRAF, Homo sapiens, UniProt P15056, V600E): remaining binding read 100%.
The remaining binding was 94% (NT-3 growth factor receptor (NTRK3, Homo sapiens, UniProt Q16288)).
BDNF/NT-3 growth factors receptor (NTRK2, Homo sapiens, UniProt Q16620) — remaining binding: 100%.
For Dual specificity mitogen-activated protein kinase kinase 6 (MAP2K6, Homo sapiens, UniProt P52564): remaining binding read 80%.
It gave 100% for remaining binding (Serine/threonine-protein kinase PAK 6 (PAK6, Homo sapiens, UniProt Q9NQU5)).
It gave 96% for remaining binding (Serine/threonine-protein kinase D2 (PRKD2, Homo sapiens, UniProt Q9BZL6)).
The remaining binding was 100% (Serine/threonine-protein kinase NLK (NLK, Homo sapiens, UniProt Q9UBE8)).
Receptor tyrosine-protein kinase erbB-3 (ERBB3, Homo sapiens, UniProt P21860) — remaining binding: 100%.

Set 3
Target: MAP kinase-activated protein kinase 5 (MAPKAPK5, Homo sapiens, UniProt Q8IW41)
Chain of UniProt Q8IW41 (whole entry, looked up): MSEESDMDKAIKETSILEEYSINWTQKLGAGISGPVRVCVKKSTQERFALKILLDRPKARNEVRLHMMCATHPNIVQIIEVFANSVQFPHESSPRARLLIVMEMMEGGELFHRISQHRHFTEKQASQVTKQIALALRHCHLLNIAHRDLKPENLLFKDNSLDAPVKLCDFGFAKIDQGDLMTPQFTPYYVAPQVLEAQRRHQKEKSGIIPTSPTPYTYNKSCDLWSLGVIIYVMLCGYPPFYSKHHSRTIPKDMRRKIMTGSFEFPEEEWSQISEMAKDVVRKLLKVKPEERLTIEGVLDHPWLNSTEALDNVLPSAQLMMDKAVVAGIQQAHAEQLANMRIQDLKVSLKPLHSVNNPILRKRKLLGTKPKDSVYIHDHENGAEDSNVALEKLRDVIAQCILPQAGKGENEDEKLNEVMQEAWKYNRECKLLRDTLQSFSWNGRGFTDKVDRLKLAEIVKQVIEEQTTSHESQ
Read-out: enzyme activity
Action: inhibitor
Concentration: 0.5 µM
Reference: control
Cc1cc(Nc2cc(N3CCN(C)CC3)nc(Sc3ccc(NC(=O)C4CC4)cc3)n2)[nH]n1 gave a remaining activity of 95.8%.
For COc1ccc2c(c1)c(C1=C(c3c[nH]c4ccccc34)C(=O)NC1=O)cn2CCCN(C)C, the remaining activity was 98.1%.
The remaining activity of O=Nc1c(-c2c(O)[nH]c3cc(Br)ccc23)[nH]c2ccccc12 is reported as 82.7%.
With CCCCc1c(-c2ccc(OC)cc2)[nH]c2nccnc12 the remaining activity was 95.3%.
O=C(c1cc2cc(O)ccc2[nH]1)c1cc2cc(O)ccc2[nH]1 gave a remaining activity of 89.6%.
CN(C)S(=O)(=O)c1ccc2c(c1)/C(=C/c1cc3c([nH]1)CCCC3)C(=O)N2 gave a remaining activity of 99.8%.
c1ccc(-c2n[nH]c3c2oc2ccccc23)cc1 has a remaining activity of 103%.
O=C1Nc2ccc(Br)cc2/C1=C/c1cc2c([nH]1)CCCC2 gave a remaining activity of 90.6%.

Other studies, line by line
CC(C)S(=O)(=O)c1ccc2nccc(Nc3ccc4sc(C5CCCC5)nc4c3)c2c1.Cl gave a caspase-3 activity of 0.007 a.u. and 0.018 a.u. and 0.005 a.u. (L929; caspase activity, Ac-DEVD-pNA absorbance; 50 µM, 0 h; higher = more activity).
